# Experimental data pooled from the literature.
# Parts stem from different laboratories: compare values within a part only. Substitutions count along the parent as printed.

# Block 1 — technique: RNA Bind-n-Seq; molecule type: RNA; matrix: in vitro; concentration: 365 nM; reference: no-protein control; reading: higher = stronger binding
# Target: RNA binding protein fox-1 homolog 2, RRM domain, GST-SBP tag (RBFOX2, Homo sapiens, UniProt O43251-10, residues 100-194)
# Setting: natural RNA segment, single round, ends assumed
# Residues (chain): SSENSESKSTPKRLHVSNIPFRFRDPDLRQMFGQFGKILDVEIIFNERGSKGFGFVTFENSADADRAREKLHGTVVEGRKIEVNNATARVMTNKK
Strand,RBNS enrichment (R)
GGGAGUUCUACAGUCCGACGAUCGAUCACCCGCCAGAGGCGGGGCACGAGGCACACUGUGUUAUACUGCAUGAGCCAUGAAUUGGGCUAGAGGAAGCCUUGUCAUCAGAUACUGACCAUAGCAUGUGACACUCUGGAAUUCUCGGGUGCCAA,4.85
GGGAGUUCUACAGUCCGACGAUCCAGAGCCCGGAGUUUGAAUCCCAGAGUCCUAAGUAUGAGCCCCGAAGCCCUGGCUGCCAUCCCAGGAGCCCUGGCUGUGAACCUGGGAGUCCUAGGUAUGAACCCAAAAGUGGAAUUCUCGGGUGCCAA,1.18
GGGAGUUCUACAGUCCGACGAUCAAAUUAUUCUUGUACAGUUUUAUUUGUACAGUUCAGUGUAACCACCUAUCAUCUUGUUAACACUAGAUUCUUCUGAGAUUCAAAAAGAAAAAUCACUGUCAGAGCUAGCCUGGAAUUCUCGGGUGCCAA,0.292
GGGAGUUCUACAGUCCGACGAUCGCUUCAGCAUUGUGCAGUUUAAAAAUAAGUAAGUAACUUACAUAAAUCUUCAAUUGUAUGAACUGCAGCUUUGAGUCCAUUUUUUUCCAGUGGUGAAGAAUUGGCGGGGGUGGAAUUCUCGGGUGCCAA,0.42
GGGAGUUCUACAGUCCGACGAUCCACAUGCACGUAUGCGUGCACACACACACACACACACACACAUCUAAUCACCAUAUUGUAAAAUUUUGUGUUUUUAAAGCCAACUCUUUGCUCCGGUUUUUUCAUACGACUGGAAUUCUCGGGUGCCAA,1.22
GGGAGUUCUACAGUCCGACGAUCCUUUGCUUGUUGAAUAAUGCACUUUAAAACAAGGAACCGUAUCAGGCCAGCAUGGUGGCUCAUGCCUGUAAUCCCAGCAUUUUGGGAGGCUCAGGCAGACAAAUCGCUCUUGGAAUUCUCGGGUGCCAA,28.6
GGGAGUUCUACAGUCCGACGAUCCCGGUGGGCAGUGGGUGGAUCCUGGUUUCGUGUGCUGCCCAUGCACCUUCCAGCCCGGGGCCAGCUUGGCAGGGAUCCCCAGGAGGCCUGGGCCGCCCAGAGGCUCCUCUUGGAAUUCUCGGGUGCCAA,0.477
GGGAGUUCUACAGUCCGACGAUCAACCCUUCCAAUACAAGAAUAAGUGGACUAGACUUCCAGUGAUCCCUCUCCCAGCUCUUCCCUUUCCCAGUUGUCCCCACUGUAACUCAAAAGGAUGGAAUACCAAGGUCUGGAAUUCUCGGGUGCCAA,0.444

# Block 2 — technique: RNAcompete; molecule type: RNA; matrix: in vitro; concentration: 20 nM; setting: 7-mer, probes averaged, single round; reference: mean of 7-mers; reading: higher = stronger binding
# Target: PABPC1L2, full length, GST fusion (mouse, UniProt A0ABA7IW68)
Strand,7-mer Z-score
UUGGGCG,-0.0228
CGAUAAG,-0.0627
GGUAUGC,0.000733
UGGAAUA,-0.00652
GCCGAAG,-0.202
GGUAUCU,-0.0718
UCCUAUU,-0.418
CGUCCUU,-0.461
AAACACU,1.64
CAAAAUU,1.83
CCCACAU,-0.443
CCAGCUG,-0.318
UUGGCUA,-0.184
GGAGCGG,0.323
CUAACGA,-0.0953
CACUACC,-0.284
AAGGUCC,-0.0681
ACGAGAA,0.474
GGUAAAA,2.89
CGGCCUU,-0.316
GUUGCUC,-0.443
GGUAUUU,-0.271

# Block 3 — technique: universal PBM; molecule type: double-stranded DNA, one strand shown; matrix: in vitro; concentration: not given; reading: higher = stronger binding
# Target: Sal-like protein 4, full length isoform B (SALL4, Homo sapiens, UniProt Q9UJQ4-2, residues 1-616)
# Setting: 8-mer, flanks averaged, mean of replicates
# Construct (chain): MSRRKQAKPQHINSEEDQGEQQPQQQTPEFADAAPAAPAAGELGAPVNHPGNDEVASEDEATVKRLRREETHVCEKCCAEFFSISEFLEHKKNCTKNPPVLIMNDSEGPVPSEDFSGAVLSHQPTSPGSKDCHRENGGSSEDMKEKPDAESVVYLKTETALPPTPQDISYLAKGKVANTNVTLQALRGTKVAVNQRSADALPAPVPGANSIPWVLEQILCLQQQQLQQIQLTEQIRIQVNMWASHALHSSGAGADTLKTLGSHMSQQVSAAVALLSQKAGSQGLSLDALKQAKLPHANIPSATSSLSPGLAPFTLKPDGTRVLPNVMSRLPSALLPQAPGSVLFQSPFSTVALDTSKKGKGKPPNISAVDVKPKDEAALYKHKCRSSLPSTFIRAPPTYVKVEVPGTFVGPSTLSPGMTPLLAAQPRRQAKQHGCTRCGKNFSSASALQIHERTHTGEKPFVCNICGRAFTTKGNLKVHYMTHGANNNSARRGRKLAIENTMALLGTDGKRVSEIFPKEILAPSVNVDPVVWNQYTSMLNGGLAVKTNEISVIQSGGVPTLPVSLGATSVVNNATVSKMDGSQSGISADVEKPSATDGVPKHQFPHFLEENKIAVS
Strand,E-score
CCAGAGGC,-0.177
CTCAGCGC,-0.224
ACGAGCTA,0.0271
CTCATCGA,-0.0294
GCTGCGCA,-0.283
CCCCGCAA,-0.0968
GGAAAGAC,-0.126
CCGGGGGC,-0.37
AAAACTAA,0.272
CCGCCGCG,-0.345
GCATAGCC,-0.0993
AACACAAT,0.26
AAGGAGAT,0.0377
ATGTTGTC,0.0904
TTATGGAA,0.335
AAACAAAC,0.137
ACAGTTGC,0.0335
AGTCACTA,0.0602
CACGCGAG,-0.241
AATGATTA,0.296
ATCCCGCA,-0.0524

# Block 4 — target: CCND3, cyclin fold, Cln2 fusion (human); technique: yeast growth competition, sequencing; matrix: yeast; setting: weak parent motif; reference: not given; reading: higher = stronger binding
# Parent: KIF20B docking peptide (human); KRAKRKLYTSEIS
Variant,normalised enrichment score
R5A,-0.0609
R2A,0.173
K4A,-0.0241
Y8A,-0.172
I12A,0.0575
T9A,0.19

# Block 5 — technique: protein-binding microarray; molecule type: double-stranded DNA, one strand shown; matrix: in vitro; concentration: 940 nM top; setting: 60-bp whole probe; added: salmon DNA 0.4 mg/ml; reference: random background probes; reading: higher = stronger binding; shared flanks, not repeated: GCCTAGCAC … GTCTTGATTCGCTTGACGCTGCTG
# Target: Interferon regulatory factor 5, full length, phosphomimetic (IRF5, Homo sapiens, UniProt Q13568-2, residues 1-514, S451D/S453D/S456D/S462D)
Strand,fitted relative affinity [z-score]
TTAGATAGCGGGACTGGATTAGTGCTA,-0.439
TCAGTTTGCCCTATTTAACTGTGCTAG,0.272
TCAGTTTTAGGTCCCTTACTGTGCTAG,0.0487
TGAGATTTCAGTATCGATTAGTGCTAG,5.49
AGTGTTTGCCCTATTTAAGAGTGCTAG,0.357
TTAGGTATCGGGACTGGGCTAGTGCTA,4.36
GTCCCTGAATGAAAACATCATGTGCTA,0.44
TTAGGCTTCGGTCTCGGTTAGTGCTAG,2.01
TCACTAATCTCACTCTGACTGTGCTAG,1.45
TTAGGACTGTGGTATCGGTTAGTGCTA,4.03
TACGGACTGCTACTGCTGACGTGCTAG,-0.527
GGGTCTCTGGGTCGGGCAGGGTGCTAG,0.281
GACGGTCTCCTTATCCTGACGTGCTAG,0.754
TCATATCACTATTCTAGGACTGTGCTA,0.762
GACGGTTTCGGTTCCGAGACGTGCTAG,13.2
GACGGTATCGGGTTTCCGGACGTGCTA,5.05
TTAGATATCGGGACTGGGTTAGTGCTA,0.0153
GACGAACCGGGGTTTCGAGACGTGCTA,1.92
GACAGACTGGGGTATCGGGACGTGCTA,0.176

# For quick reference, copied from above (block 3):
Strand,E-score
ACGAGCTA,0.0271
CTCATCGA,-0.0294
GCTGCGCA,-0.283
CCCCGCAA,-0.0968
GGAAAGAC,-0.126
